Measured values gathered from unrelated publications.
Each numbered part is a random draw from the data of one study; scales do not carry over between parts.

Sample 1
Target: Ras GTPase-activating protein-binding protein 1, full length (G3BP1, Homo sapiens, UniProt Q13283)
UniProt Q13283, sequence (whole entry, looked up): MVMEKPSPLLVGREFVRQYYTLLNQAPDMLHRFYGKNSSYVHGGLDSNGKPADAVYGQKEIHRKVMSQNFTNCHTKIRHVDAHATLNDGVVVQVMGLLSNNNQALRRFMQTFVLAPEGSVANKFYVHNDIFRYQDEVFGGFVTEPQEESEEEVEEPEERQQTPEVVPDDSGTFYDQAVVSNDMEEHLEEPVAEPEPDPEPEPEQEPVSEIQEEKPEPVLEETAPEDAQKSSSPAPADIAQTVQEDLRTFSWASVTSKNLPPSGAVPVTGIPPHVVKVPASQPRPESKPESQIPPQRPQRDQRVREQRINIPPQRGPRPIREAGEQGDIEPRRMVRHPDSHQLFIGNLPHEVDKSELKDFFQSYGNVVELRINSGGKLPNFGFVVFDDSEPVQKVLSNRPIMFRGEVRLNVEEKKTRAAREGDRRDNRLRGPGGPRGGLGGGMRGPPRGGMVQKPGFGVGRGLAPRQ
Technique: RNA Bind-n-Seq
Form: RNA
Matrix: in vitro
Concentration: 200 nM
Notes: whole 134-nt RNA, ends assumed
With: 150 mM KCl
Reference: input library
Direction: higher = stronger binding
Measurement: log2 enrichment
Shared flanks, not repeated: GGGAGUUCUACAGUCCGACGAUC … UGGAAUUCUCGGGUGUCAAGG
AUGCACUUGACAUAGUAGCAAAUUGGUUCUGAAUUAUGCAACUGUUUGCUAUUUAGUAAACUAGCAAAUGAUGCAUGUAUUUUGUUUUUC: -2.09
CUGUGCUACACAUCGUAUGUACCGAAUCGGGGUUUUUUUGGGGAAAAAGGGGAAAAAGGGGAAAGUAUUAUGUUACGCCGUUCGGAUCUG: -0.221
UUGAGAAGAAGCAAAAAGAGAUGGAUGAAGCUGCUACGGUGAGAGAAAACCCACUAUCGAUUCCACUCACCACUUACCUCCUUCCCUUAC: 0.55
GUCCUGUGCUACACAUCGUAUGUACCGAAUCGGGGUUUUUUGGUUUUUUGGUUUUUUGGAAAGUAUUAUGUUACGCCGUUCGGAUCUGCA: -0.863
GCAGGAAGUAAAAACAAAUGGAAAUGCUUCGGAUAGUGGCAGGGGUGGGGGUUGCUAAGGAAAGGGUGGGAUGGGAGUGGGUAAAGAGUC: 0.673
UGGGAGGUAGAUUUUGUUUAUUUUUUUAGCUCAUUUCCAGGGGUGGGAAUUUUUUUUUAAUAUGUGUCAUGAAUAAAGUUGUUUUUGAAA: -0.642
UGUGCUACACAUCGUAUGUACCGAAUCGGGGUUUUUGGGGUUUUUUUGGGGAAAAAAAGGGGAAAGUAUUAUGUUACGCCGUUCGGAUCU: -0.295
UCAAGUCCUGUGCUACACAUCGUAUGUACCGAAUCGGGAGGGUUUUUGGGAGGGAAAGUAUUAUGUUACGCCGUUCGGAUCUGCACUUCC: 0.772
CAAAAACAACACGCACCCACACAGACACAGAGGGAAGGGGUUGGGAUGGGGACAGGGUGCACAGCAGGGCGGGGUAGGACCCCAGCCCCU: 1.99
CACAAAAAACACGCACCCACACAGACACAGAGGGAAGGGGUUGGGAUGGGGACAGGGUGCACAGCAGGGCGGGGUAGGACCCCAGCCCCU: 1.81
CUCAAGUCCUGUGCUACACAUCGUAUGUACCGAAUCGGAGGUGGUUUUUUUGGAAAGUAUUAUGUUACGCCGUUCGGAUCUGCACUUCCA: -0.687
UGUGCUACACAUCGUAUGUACCGAAUCGGGGAAAAAAAGGGGUUUUUGGGGAAAAAAAGGGGAAAGUAUUAUGUUACGCCGUUCGGAUCU: -0.307
UCAAGUCCUGUGCUACACAUCGUAUGUACCGAAUCGGAAGGGGAAGGGGAAGGGAAAGUAUUAUGUUACGCCGUUCGGAUCUGCACUUCC: 1.04
UGCUCUCCGUGCCACAUGCGCCCGCAGGUUACGCCAAGGAGGCCCUGAAUCUGGCGCAGAUGCAGGAGCAGACGCUGCAGUUGGAGCAAC: -2.87

Sample 2
Target: Sal-like protein 4, full length isoform A (SALL4, Homo sapiens, UniProt Q9UJQ4, residues 1-1053)
UniProt Q9UJQ4, sequence (whole entry, looked up): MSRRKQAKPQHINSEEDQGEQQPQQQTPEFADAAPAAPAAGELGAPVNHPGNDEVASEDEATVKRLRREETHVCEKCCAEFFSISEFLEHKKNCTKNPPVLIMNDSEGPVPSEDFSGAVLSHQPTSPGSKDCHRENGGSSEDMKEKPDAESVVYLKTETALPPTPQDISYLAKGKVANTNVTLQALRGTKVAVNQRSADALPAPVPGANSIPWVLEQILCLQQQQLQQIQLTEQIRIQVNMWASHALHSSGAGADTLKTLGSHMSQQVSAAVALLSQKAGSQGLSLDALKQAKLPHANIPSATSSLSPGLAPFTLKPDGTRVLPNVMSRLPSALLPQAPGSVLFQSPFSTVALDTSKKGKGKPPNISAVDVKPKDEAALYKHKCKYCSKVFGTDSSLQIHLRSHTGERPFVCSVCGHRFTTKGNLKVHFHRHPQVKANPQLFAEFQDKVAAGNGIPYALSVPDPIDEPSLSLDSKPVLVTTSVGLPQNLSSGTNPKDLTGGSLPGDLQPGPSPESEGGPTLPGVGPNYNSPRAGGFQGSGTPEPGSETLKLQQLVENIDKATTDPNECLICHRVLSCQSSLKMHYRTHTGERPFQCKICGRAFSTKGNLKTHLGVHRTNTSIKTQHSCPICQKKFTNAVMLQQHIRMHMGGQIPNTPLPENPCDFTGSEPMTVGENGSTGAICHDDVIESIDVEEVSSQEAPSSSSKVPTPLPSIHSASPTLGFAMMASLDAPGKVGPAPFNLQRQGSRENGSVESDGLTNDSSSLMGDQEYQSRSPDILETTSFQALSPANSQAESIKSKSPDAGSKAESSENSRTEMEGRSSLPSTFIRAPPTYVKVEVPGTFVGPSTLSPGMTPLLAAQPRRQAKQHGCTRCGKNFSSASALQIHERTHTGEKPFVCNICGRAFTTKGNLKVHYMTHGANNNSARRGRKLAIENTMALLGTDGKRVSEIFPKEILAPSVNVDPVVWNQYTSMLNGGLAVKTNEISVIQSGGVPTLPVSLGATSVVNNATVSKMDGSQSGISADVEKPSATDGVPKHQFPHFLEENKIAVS
Technique: universal PBM
Form: double-stranded DNA, one strand shown
Matrix: in vitro
Concentration: 600 nM
Notes: 8-mer, flanks averaged, mean of replicates
Direction: higher = stronger binding
Measurement: E-score
AGCCGTCA: -0.128
GTTAATAA: 0.392
GACCGGAA: -0.312
CACTCCAA: -0.0919
CACCCTGA: -0.195
CAATCTCG: -0.025
TATCGGGA: -0.00991
CAAACTAG: 0.0113
CGGTGCCC: -0.408
CTATCGCC: -0.135
ACGTGTCT: 0.0971
GGAACGAA: 0.0768
GCTTCTGA: 0.00639
CCCTGGCA: -0.308
CTTCATTA: 0.279
ACACTGGT: -0.0105

Sample 3
Target: Interferon regulatory factor 7, full length, phosphomimetic (IRF7, Homo sapiens, UniProt Q92985, residues 1-503, S471D/S472D/S475D/S476D/S477D/S483D/S484D/S487D)
Technique: protein-binding microarray
Form: double-stranded DNA, one strand shown
Matrix: in vitro
Concentration: 2200 nM top
Notes: 60-bp whole probe
With: salmon DNA 0.4 mg/ml
Reference: random background probes
Direction: higher = stronger binding
Measurement: fitted relative affinity
Shared flanks, not repeated: GCCTAGCAC … GTCTTGATTCGCTTGACGCTGCTG
Target sequence (chain): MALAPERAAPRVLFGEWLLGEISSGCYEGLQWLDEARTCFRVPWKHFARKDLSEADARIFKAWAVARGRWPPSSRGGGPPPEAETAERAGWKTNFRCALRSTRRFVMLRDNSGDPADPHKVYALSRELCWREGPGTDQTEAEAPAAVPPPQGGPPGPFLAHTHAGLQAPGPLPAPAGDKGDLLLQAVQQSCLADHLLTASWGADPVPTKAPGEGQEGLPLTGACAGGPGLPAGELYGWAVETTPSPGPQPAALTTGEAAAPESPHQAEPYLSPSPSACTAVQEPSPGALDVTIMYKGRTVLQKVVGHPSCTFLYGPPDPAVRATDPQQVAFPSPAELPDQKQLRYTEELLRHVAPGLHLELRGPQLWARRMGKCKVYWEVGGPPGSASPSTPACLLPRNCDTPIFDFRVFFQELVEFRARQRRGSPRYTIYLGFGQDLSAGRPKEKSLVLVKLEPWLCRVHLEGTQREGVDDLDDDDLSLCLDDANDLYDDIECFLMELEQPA
TTAGATATCAGACTGGAATAGTGCTAG: -0.446 z-score
GACGGTCTCATTATCCTGACGTGCTAG: 0.874 z-score
GACGATATCAGTATCGAGACGTGCTAG: 0.212 z-score
GACGGACTGTTTCTCCTGACGTGCTAG: 1.08 z-score
GACGGTATCGGGTATCGGGTCGTGCTA: 0.34 z-score
TCATATGTCCTGTCTACAACTGTGCTA: 1.62 z-score
TTAGGACTGGACTATCGGATAGTGCTA: -0.489 z-score
TTAAATATCGGGTATCGATTAGTGCTA: -0.106 z-score
TTAGGTTTCGGGTATGGGTTAGTGCTA: 5.25 z-score
TCAATTTTGCTTCTAGAACTGTGCTAG: 1.31 z-score
TTTGATTTCAGTCTCGATTAGTGCTAG: 1.57 z-score
GACGGTTTCCTTCTCCCGACGTGCTAG: 3.28 z-score
GACGTACTGGGGTTTCGAGACGTGCTA: 1.28 z-score
TTAGGTATCCTTCTCCTTTGGTGCTAG: 1.23 z-score
TTAGATCTCAATATCGATTAGTGCTAG: -0.0678 z-score
TTAGCTATCCTTATCCTTTAGTGCTAG: 1.07 z-score
TACGATTTCAGACTGGAGACGTGCTAG: 0.579 z-score
TTATATTTTAATCACATATAGTGCTAG: 0.431 z-score
GCATCGTAAGCAAAAATGATGTGCTAG: -0.297 z-score
GACGGTTTCGGGTAGCGGGACGTGCTA: 6.35 z-score
TTAGGTATCGACGTTCGGTTAGTGCTA: 0.806 z-score
TGAGAACTGGGGACTGGATTAGTGCTA: -0.492 z-score
TCAAAAATCTTTGTTGGAACTGTGCTA: -0.647 z-score

Sample 4
Target: RNA binding protein fox-1 homolog 2, RRM domain, GST-SBP tag (RBFOX2, Homo sapiens, UniProt O43251-10, residues 100-194)
Technique: RNA Bind-n-Seq
Form: RNA
Matrix: in vitro
Concentration: 365 nM
Notes: natural RNA segment, single round, ends assumed
Reference: no-protein control
Direction: higher = stronger binding
Measurement: RBNS enrichment (R)
Shared flanks, not repeated: GGGAGUUCUACAGUCCGACGAUC … UGGAAUUCUCGGGUGCCAA
Residues (chain): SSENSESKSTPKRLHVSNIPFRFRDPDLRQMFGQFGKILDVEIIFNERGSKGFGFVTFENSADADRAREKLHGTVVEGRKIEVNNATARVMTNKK
GGGUAAGAAUUUCCGCUCCUACUUGCUAGAUCUGCGAAAUACUAGCACUCCUUUCAAGGGUGUUGGCAAGGCCCUCAUUGAUACUCUCCUGGAUGGAUAUGAGACAGCCC: 0.217
ACCCAGAGCUUGCCUGCCAGGGCUUGGUUCUCCAUUUCCACUGCUGACAUUUGAUUUCCAGUGUAUUUAAAUUACUCCGUGGUAAAUUUCAUUGUCUUUUCCUGUGUAAA: 0.798
GUCCCUGUCCAGGGCCCCGGCUUGGUUUCCAAGUGUAAAUACCGCCUCGCGCCUCAAAUCCCCCUACCCCGUGUGAACUCUAGGGCAUCGGACCUCAAGGGGUUAACUGG: 0.245
AACAGGUAGCUCUCCAUAAGGAAAUUAUCAUGAGUGUGUUCUCCCAUCAGUGCACUUCUCCCAGGGGUGCUCACUGAAGCUGGUCCACGUCUAUAAACAGGUGACACUGG: 0.414
AGCCAGGCGCCUGCUCAUGUUGAAGUGCGCUGUUCACACCCGCUCCGGAGAGCACCCCAGCAGCAUCCAGAAGCAGCUGCAGUGUUGCUGCCACCACCCUCCUGUCUGCC: 0.398
GAGGAAGAUAAAUGCGAGAGGGCAAUCCUUUACUAUUCUCAUAUUUAUUUAUCUCUCAUUCUGUAUAGAAUUCUUGCCGCCAUCCCAGGUCUAGCCUUAGGAGCAAAUGU: 0.246
AUGCCUAUUUUCCAAGCACAGUUCUGCCCCCCGGUUGACUUUUAUGCCACGUGUGCUUCAUGAUGGAACUUUUAGGUCAGUUCCUAUUAAAUGAGCUCUUUUGCAGAUAG: 0.505
GUAUUCUCAUUUUGAGUGACAUUCAGAGGUUCACGUUUGCUUCUCUGCCGAGCAAAGGGAACGUCCUCAGAUUUCCGUCCAUUUCAUUUCUUCAUUAGAGUAAACAGUGG: 0.224
UUCAGUUAGUCUUUUAUUUAUUUAGAAUAAAAAAUAGUUUGAUAACCUACCAGAGUUAGUGCUUCUUUAAAAACACUCCUUGGAAAGAUGGGGACUGUCCCUUAGGAAAG: 0.489
UUCCUAUCUUAGCAUUUUGGUCUCAUUGGUUUAUAGACUCUGAUAAUAUCCCUAUCCAUGGAUCAUUUGAGUAUUGACUAAUGUACAUAGGUACCCAACUGGUUGAUUAU: 2.97
UCGUUGGUUUUUGUUUGUUUACUUGGUUUUCUCAUGUCCAGCACGGAGGUCUCCAGUUCACAAGAGCUUCCUGGGAAGGAUAAUAAUCAUGUUUGUAGGAAUCUCAUUCC: 0.562
UCUAUACCUUUGUGCACAGUUGAAUGGGAACUGUUUGGGUUUAGGGCAUCUUAGAGUUGAUUGAUGGAAAAAGCAGACAGGAACUGGUGGGAGGUCAAGUGGGGAAGUUG: 11.2
